Published values collected from several papers.
Parts stem from different laboratories: compare values within a part only.

Sample 1
Target: Interferon regulatory factor 5, full length, phosphomimetic (IRF5, Homo sapiens, UniProt Q13568-2, residues 1-514, S451D/S453D/S456D/S462D)
Technique: protein-binding microarray
Molecule type: double-stranded DNA, one strand shown
Medium: in vitro
Concentration: 940 nM top
Setting: 60-bp whole probe
Added: salmon DNA 0.4 mg/ml
Relative to: random background probes
Direction: higher = stronger binding
Measurement: fitted relative affinity
Constant ends, left off below: GCCTAGCAC … GTCTTGATTCGCTTGACGCTGCTG
TTAGGTTTCGGACTGGGTTGGTGCTAG: 7.63 z-score
TGCTCCTTATGGCTAAAGGGGTGCTAG: -0.275 z-score
TTAGGTTGCGGGACTGGGTTAGTGCTA: 0.248 z-score
GACGGTTTCAGTTCCGAGACGTGCTAG: 5.59 z-score
GACGGTTTCGGGACTGTGGACGTGCTA: 6.79 z-score
GATGGACTGGGACTGGGGACGTGCTAG: -0.577 z-score
GACGGACTGGTTTTCGGGACGTGCTAG: 0.253 z-score
TTAGGTTTCGGATTTCGGTTAGTGCTA: 8.22 z-score
TCACTTTCAGTTCTCCCACTGTGCTAG: 4.59 z-score
GACTATATCAGTCTCGAGACGTGCTAG: 1.13 z-score
TTAGGACTGGACTATCCGTTAGTGCTA: -0.432 z-score
TTAGAACTGGGGACTGCATTAGTGCTA: -0.229 z-score
AAGCCAGCCAAGGCCACTGTGTGCTAG: -0.778 z-score
TCACCTATTTATATGAGACTGTGCTAG: 0.545 z-score
GACGGACTGCACTATCGGGACGTGCTA: -0.377 z-score
TTAGGTCTGGGGACTGGGTTAGTGCTA: -0.499 z-score
CAAACAGAGACCCGGCAAGTGTGCTAG: -0.376 z-score
TCAATTTTCTCTGTTCTACTGTGCTAG: 1.89 z-score
GAAATTTTCCCCTACTGTATGTGCTAG: 0.961 z-score
TTAGGTATCCTTCTACTTTAGTGCTAG: 0.824 z-score
TCTCTGCTACCCTTTGAAAGTGTGCTA: 4.25 z-score
TCCATTTCTGTTTTTGCTTTGTGCTAG: 1.98 z-score
GACGTACTGCTTCTCCTGACGTGCTAG: 0.237 z-score
GACGATTTCAGTCTCGAGATGTGCTAG: 1.67 z-score
GGACCGACCCCTCCATCCCTGTGCTAG: -0.0119 z-score

Sample 2
Target: RING finger protein unkempt homolog, zinc fingers 1-6, SBP tag (UNK, Homo sapiens, UniProt Q9C0B0, residues 30-357)
Chain of UniProt Q9C0B0 (30-357, looked up): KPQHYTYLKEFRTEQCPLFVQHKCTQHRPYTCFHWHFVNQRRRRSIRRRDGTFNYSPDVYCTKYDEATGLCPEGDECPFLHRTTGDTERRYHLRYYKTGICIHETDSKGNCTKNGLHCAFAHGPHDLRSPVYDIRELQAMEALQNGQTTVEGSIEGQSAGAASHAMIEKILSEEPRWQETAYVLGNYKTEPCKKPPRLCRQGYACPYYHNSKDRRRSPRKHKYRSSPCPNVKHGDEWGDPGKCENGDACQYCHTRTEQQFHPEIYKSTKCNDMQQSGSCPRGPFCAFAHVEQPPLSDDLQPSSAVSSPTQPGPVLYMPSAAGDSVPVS
Technique: RNA Bind-n-Seq
Molecule type: RNA
Medium: in vitro
Concentration: 100 nM
Setting: RNA with constant flanks, vertebrate orthologous sites, ends assumed
Relative to: input RNA pool
Direction: higher = stronger binding
Measurement: bound/input enrichment
Constant ends, left off below: GGGAGUUCUACAGUCCGACGAUC … CAACAGAGGAUUGAGCAUCA
AUCAUGGACGCUUUUACCUACCUCAGUGAGGUAACGUCUCCCCUGACGUUUGGUUGGCACUAGGGCCCAUCACACCUGAUCUGUCUUUCCACAUUUCAUCUCUUUAUGCUCACACUCAUC: 0.933 ratio
AGCAACUCAAGGAUUCAGAACUGGUUUUACAAAUGUCCCAAGCAGAUAUGGAAGCAACGCUCGUGGUCAGCCCCGACCGUAAUAAACACCAUUAUUUAUUAUACUUAAGGGUAUUGACUU: 0.404 ratio
CAGCUGAUUCACUCAUUGGGAGAGCUGCACAUAUAGCUGUUCUUGAUUCGGAAAUCUUUUUAGAGAAAUUCUUUCUGGUUGCUGCCCUCAAAUAUUUCCAAUAGUAUAAAAGCAUUGUUA: 1.12 ratio
ACCAAGUAAUUUUUUUCAACAUUAAUUGAAAAGUGUUGUGUGAAACAUGUCUAGUCAAGAAGUAACAGAAAUAUAUGUGAGCAUUUAAAGUAAAUUUGAGAUGAAGAGUGAAGUAUAUUU: 0.524 ratio
AGAACCUAAAAAUAUAGCAAAAGAGCCAAGCAGUGGCUUUUUUUUAUAAAUGUAAAAAUUAGAUCCAGCCUUUUGUUUCCGUAUUCAGUUUUAAAAAUAAAAAAUACCUCAGUGCUAUGA: 1.09 ratio
UUUAAUUAGAGGGUAGUGUAUGUUUCAUAAAGAAGAGUCUUUGUAAUUUUGUUUGUCCUAUAGUAUUUUGGAAUUUGUAUAAUGAGGAUGUUUAGAAGCCCUAUCAAUGGAUUUUUUUAA: 0.955 ratio
UUUUAUUGAUCAGGUCUGUAAAUGUGUACUAAAACAAUCAGAGUUUAUUUAUAAAUAGGAUAGUUUAUUUAAAGAGGUGUUUUCCUCCCUGAUAUCAUGGUAUGCGUAAUUCUUUGCUAC: 0.372 ratio
AAAUUUAUUUCAUGCCAUGGACUCCAUACCGUACAGAUACGUUGAUAGAAUAUGCGUCUUUAGAGGACUUCCAAAACAGCCGCCAAACAACAACUUACAAACUUCCAAAUCGUGUGGAUG: 1.99 ratio
AUUUAGAAUGUUAAUAAAUUGCUCUGAGAUUCCUCAAGUCCAUUUUGUGAGAUCAGACCAUAGGUGGGUGUUGUUUCUUUUAAGUUUGUGUACUGCGUCCAAUGUUACAUUUUUAGAAGU: 3.52 ratio
UACUGUUGUUAAGCACUGUUCCAGACCGUGUCUGACUUUAGUGUAACCUAGGAGAUUUUAUAGUUUUAUUUUAAUGGAAUCCUGCCUGACGCAGAGCAGUUGGGAGAGCAGUGUCUUCUG: 1.54 ratio
CCACUUUUUACCUUCUGAUCACCUCAGUGAGGUAAAACCUCCUUGGCAUUUGGCUGGUACUAGAGCCAGUGAUUCAUAAGAAGUUUUUUUCACAUUUCAUUUCUUUCAUGCUCAUAGACA: 0.293 ratio

Sample 3
Target: Sox-I, HMG box (Salpingoeca helianthica)
Technique: Spec-seq
Molecule type: double-stranded DNA, one strand shown
Medium: in vitro
Concentration: not given
Setting: whole probe, mean of replicates
Relative to: not given
Direction: lower = stronger binding
Measurement: relative binding energy
Constant ends, left off below: GAGTCGTCTCGTCAGCAC … CCGTAGAGCACTCAGGTC
Construct (chain): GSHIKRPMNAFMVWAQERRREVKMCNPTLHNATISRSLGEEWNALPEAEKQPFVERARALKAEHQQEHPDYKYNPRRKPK
CATCCAT: 0.509 ln ratio
CATTAAG: 0.257 ln ratio
CATTGTC: -2.04 ln ratio
GGAAGTT: 1.35 ln ratio
CTGAGTT: 1.04 ln ratio
TGCAGTT: 0.284 ln ratio
CATGAAG: 0.956 ln ratio
CATAGGA: 0.162 ln ratio
CCAAGTT: 0.596 ln ratio
AATGGTT: -2.52 ln ratio
TTCCGTT: 0.801 ln ratio
CATTGGA: 1.04 ln ratio
CATTCCT: 0.61 ln ratio
CCGAGTT: 0.919 ln ratio
CATTGTG: -1.65 ln ratio
CATCGGA: 0.999 ln ratio
ACGCGTT: 0.248 ln ratio
ACTTGTT: -0.997 ln ratio
TCCCGTT: 0.591 ln ratio
GTTCGTT: 0.958 ln ratio
TTAAGTT: 0.326 ln ratio

Sample 4
Target: Ras GTPase-activating protein-binding protein 1, C-terminal RGG region (G3BP1, Homo sapiens, UniProt Q13283)
Chain of UniProt Q13283 (whole entry, looked up): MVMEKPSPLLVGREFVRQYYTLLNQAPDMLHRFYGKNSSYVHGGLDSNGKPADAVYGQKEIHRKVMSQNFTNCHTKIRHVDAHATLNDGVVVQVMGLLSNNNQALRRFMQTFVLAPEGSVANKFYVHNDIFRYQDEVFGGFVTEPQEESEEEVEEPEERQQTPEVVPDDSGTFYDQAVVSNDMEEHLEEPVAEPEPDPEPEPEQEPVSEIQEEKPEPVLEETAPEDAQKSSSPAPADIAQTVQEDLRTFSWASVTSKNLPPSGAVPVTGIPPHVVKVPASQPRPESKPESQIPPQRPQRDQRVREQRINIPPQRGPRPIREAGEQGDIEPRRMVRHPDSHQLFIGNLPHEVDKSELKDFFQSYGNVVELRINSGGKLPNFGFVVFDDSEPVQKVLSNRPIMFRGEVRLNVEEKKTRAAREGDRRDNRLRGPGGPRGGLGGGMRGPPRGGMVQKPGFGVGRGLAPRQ
Technique: RNA Bind-n-Seq
Molecule type: RNA
Medium: in vitro
Concentration: 1 µM
Setting: whole 134-nt RNA, ends assumed
Added: 150 mM KCl
Relative to: input library
Direction: higher = stronger binding
Measurement: log2 enrichment
Constant ends, left off below: GGGAGUUCUACAGUCCGACGAUC … UGGAAUUCUCGGGUGUCAAGG
UUUCACUUCCAGCCAGCUGUGAAGAAGGUGAGCUUGCCUUCCAUCUUCCCCCCUAUCCGCCGCGUAUCUCCGUCGUCUGCAAGCGCGUGA: -0.258
CCUCAAGUCCUGUGCUACACAUCGUAUGUACCGAAUCGGGUGGGGUGGGGUGGAAAGUAUUAUGUUACGCCGUUCGGAUCUGCACUUCCA: 0.918
CCUGUGCUACACAUCGUAUGUACCGAAUCGGGGAAAAAAGGGGAAAAAAGGAAAAAAGGGAAAGUAUUAUGUUACGCCGUUCGGAUCUGC: -1.73
UCAAGUCCUGUGCUACACAUCGUAUGUACCGAAUCGGUUGGGGUUGGGUUGGGGAAAGUAUUAUGUUACGCCGUUCGGAUCUGCACUUCC: 1.57
UCAAGUCCUGUGCUACACAUCGUAUGUACCGAAUCGGAGGUUUUUUUGGUUUGGAAAGUAUUAUGUUACGCCGUUCGGAUCUGCACUUCC: -1.49
AAGUCCUGUGCUACACAUCGUAUGUACCGAAUCGGGAAAAGGAAAAGGGGAAAAGGGAAAGUAUUAUGUUACGCCGUUCGGAUCUGCACU: -1.18
CUCAAGUCCUGUGCUACACAUCGUAUGUACCGAAUCGGAAGGGGAAGGAAGGGAAAGUAUUAUGUUACGCCGUUCGGAUCUGCACUUCCA: -1.06
UGGGAGGUGGAUUUUGUUUAUUUUUUUAGCUCAUUUCCAGGGGUGGGAAUUUUUUUUUAAUAUGUGUCAUGAAUAAAGUUGUUUUCGAAA: 2.88
CCUGUGCUACACAUCGUAUGUACCGAAUCAAACCCCCCCAAACCCCCAAACCCCCCCAAAAAAGUAUUAUGUUACGCCGUUCGGAUCUGC: -0.782
UCCUCAAGUCCUGUGCUACACAUCGUAUGUACCGAAUCGGGUGGGUGGUGGAAAGUAUUAUGUUACGCCGUUCGGAUCUGCACUUCCAGC: -0.0189
UCCUCAAGUCCUGUGCUACACAUCGUAUGUACCGAAUCGGGUGGGGUGGUGGAAAGUAUUAUGUUACGCCGUUCGGAUCUGCACUUCCAG: 0.0939
UGUGCUACACAUCGUAUGUACCGAAUCGGGGAAAAAAAGGGGAAAAAAAGGAAAAAAAGGGGAAAGUAUUAUGUUACGCCGUUCGGAUCU: -0.95
CAAGUCCUGUGCUACACAUCGUAUGUACCGAAUCGGAAAAGGGAAAAGGAAAAGGGAAAGUAUUAUGUUACGCCGUUCGGAUCUGCACUU: -2.08
CCUGUGCUACACAUCGUAUGUACCGAAUCGGGGUUUGGGGAAAAAGGGGAAAAAAAGGGGAAAGUAUUAUGUUACGCCGUUCGGAUCUGC: 0.656

Sample 5
Target: Histone acetyltransferase KAT6A, both winged helices, GST fusion (KAT6A, Homo sapiens, UniProt Q92794, residues 1-181)
Technique: protein binding microarray
Molecule type: double-stranded DNA, one strand shown
Medium: in vitro
Concentration: not given
Setting: 8-mer, flanks averaged, mean of 2 arrays, mostly near background
Relative to: not given
Direction: higher = stronger binding
Measurement: E-score
Construct (chain): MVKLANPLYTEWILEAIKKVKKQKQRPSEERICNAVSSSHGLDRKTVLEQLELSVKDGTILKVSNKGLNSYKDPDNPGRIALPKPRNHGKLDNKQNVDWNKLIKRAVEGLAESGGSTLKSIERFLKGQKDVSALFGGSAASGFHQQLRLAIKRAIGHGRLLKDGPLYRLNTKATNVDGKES
CTTTTCAA: -0.0951
AACAATCT: -0.0621
TGCCGGAA: 0.167
ACGTAGGA: -0.161
CGGAGTTC: 0.125
CGGAAAAA: 0.231
CAAGGCGG: 0.136
TATACTGA: -0.0704
ATAAGAGG: -0.159
CTAACGCA: 0.123
ACAATGGA: -0.0991
ATATACAA: 0.0454
CAAGAATA: -0.00343
CAGCTCCG: 0.0484
AAGACCCA: -0.161
AGCGTAGC: 0.171
AACCTAAA: -0.103
GCCCAGAA: -0.197
AACTCAAG: -0.0947
AGGTACGA: -0.149

Excerpt of the above (sample 1):
TTAGGTTTCGGACTGGGTTGGTGCTAG: 7.63 z-score
TCTCTGCTACCCTTTGAAAGTGTGCTA: 4.25 z-score
TTAGGTTGCGGGACTGGGTTAGTGCTA: 0.248 z-score
GAAATTTTCCCCTACTGTATGTGCTAG: 0.961 z-score
CAAACAGAGACCCGGCAAGTGTGCTAG: -0.376 z-score
AAGCCAGCCAAGGCCACTGTGTGCTAG: -0.778 z-score
GACGGTTTCAGTTCCGAGACGTGCTAG: 5.59 z-score
GACGGTTTCGGGACTGTGGACGTGCTA: 6.79 z-score
